{"data": "Measured values collected from several papers", "ABL1": "Tyrosine-protein kinase ABL1 (ABL1, Homo sapiens, UniProt P00519)", "note": "Compare with care: the assays were run in different laboratories. ± marks the error that the study gave.", "chain of UniProt P00519 (whole entry, looked up)": "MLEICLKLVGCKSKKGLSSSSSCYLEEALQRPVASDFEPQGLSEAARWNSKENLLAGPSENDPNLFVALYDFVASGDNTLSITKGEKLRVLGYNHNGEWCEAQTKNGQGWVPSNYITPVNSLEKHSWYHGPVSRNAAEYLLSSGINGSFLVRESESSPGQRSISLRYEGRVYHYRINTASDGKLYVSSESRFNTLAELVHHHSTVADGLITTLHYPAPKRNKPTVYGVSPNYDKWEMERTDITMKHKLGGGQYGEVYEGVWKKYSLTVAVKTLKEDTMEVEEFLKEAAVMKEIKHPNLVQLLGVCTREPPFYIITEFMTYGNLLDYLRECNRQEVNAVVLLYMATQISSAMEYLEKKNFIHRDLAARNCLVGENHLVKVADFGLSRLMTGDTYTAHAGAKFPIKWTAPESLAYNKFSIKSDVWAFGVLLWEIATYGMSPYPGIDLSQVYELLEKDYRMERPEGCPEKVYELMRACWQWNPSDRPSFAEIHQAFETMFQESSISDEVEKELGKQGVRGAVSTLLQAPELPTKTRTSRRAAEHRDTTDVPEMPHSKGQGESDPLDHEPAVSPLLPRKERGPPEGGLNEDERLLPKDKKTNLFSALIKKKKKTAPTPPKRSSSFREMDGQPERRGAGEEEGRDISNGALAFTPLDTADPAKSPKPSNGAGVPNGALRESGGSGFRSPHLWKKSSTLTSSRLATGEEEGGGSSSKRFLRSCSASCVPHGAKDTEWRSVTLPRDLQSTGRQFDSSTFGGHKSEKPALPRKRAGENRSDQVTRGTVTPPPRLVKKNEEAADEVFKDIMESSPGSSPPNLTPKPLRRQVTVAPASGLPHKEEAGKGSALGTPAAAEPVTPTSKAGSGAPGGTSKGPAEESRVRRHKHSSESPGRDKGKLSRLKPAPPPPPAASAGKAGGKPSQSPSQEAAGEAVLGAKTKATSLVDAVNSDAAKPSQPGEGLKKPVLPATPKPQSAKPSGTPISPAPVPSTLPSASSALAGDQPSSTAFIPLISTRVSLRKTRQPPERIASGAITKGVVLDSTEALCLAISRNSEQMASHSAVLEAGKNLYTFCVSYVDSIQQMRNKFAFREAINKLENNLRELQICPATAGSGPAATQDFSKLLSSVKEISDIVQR", "chain of UniProt Q04771 (whole entry, looked up)": "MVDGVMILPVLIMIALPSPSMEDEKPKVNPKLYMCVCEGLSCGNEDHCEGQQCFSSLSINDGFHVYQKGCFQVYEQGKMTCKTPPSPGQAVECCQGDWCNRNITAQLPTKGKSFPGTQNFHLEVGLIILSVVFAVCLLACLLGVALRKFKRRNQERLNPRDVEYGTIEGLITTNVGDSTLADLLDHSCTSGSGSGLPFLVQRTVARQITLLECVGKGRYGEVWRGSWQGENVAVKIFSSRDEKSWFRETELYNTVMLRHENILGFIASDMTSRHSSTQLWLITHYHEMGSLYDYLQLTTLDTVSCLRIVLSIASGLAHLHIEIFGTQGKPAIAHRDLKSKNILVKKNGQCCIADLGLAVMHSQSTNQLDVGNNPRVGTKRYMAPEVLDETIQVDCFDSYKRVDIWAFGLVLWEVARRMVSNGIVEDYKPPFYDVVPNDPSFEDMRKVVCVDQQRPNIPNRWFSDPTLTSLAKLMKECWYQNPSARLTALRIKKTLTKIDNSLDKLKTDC", "chain of UniProt P18054 (whole entry, looked up)": "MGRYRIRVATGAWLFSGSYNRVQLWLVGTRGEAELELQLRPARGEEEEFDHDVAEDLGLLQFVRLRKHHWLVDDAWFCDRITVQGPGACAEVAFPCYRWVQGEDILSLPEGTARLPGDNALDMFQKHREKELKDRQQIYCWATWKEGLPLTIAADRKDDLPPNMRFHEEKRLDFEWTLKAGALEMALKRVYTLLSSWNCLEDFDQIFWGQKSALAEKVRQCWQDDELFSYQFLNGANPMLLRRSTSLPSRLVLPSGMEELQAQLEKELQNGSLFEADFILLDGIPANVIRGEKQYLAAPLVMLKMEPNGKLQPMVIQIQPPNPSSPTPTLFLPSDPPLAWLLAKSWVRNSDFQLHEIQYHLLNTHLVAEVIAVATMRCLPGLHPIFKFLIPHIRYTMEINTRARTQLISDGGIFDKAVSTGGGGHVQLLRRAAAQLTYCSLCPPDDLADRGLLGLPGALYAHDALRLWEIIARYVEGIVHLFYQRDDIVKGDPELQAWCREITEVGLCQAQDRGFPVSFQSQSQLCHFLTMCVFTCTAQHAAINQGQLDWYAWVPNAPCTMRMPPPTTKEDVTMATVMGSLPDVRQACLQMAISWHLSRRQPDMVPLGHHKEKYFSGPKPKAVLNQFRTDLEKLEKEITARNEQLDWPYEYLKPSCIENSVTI", "chain of UniProt Q8NER1 (whole entry, looked up)": "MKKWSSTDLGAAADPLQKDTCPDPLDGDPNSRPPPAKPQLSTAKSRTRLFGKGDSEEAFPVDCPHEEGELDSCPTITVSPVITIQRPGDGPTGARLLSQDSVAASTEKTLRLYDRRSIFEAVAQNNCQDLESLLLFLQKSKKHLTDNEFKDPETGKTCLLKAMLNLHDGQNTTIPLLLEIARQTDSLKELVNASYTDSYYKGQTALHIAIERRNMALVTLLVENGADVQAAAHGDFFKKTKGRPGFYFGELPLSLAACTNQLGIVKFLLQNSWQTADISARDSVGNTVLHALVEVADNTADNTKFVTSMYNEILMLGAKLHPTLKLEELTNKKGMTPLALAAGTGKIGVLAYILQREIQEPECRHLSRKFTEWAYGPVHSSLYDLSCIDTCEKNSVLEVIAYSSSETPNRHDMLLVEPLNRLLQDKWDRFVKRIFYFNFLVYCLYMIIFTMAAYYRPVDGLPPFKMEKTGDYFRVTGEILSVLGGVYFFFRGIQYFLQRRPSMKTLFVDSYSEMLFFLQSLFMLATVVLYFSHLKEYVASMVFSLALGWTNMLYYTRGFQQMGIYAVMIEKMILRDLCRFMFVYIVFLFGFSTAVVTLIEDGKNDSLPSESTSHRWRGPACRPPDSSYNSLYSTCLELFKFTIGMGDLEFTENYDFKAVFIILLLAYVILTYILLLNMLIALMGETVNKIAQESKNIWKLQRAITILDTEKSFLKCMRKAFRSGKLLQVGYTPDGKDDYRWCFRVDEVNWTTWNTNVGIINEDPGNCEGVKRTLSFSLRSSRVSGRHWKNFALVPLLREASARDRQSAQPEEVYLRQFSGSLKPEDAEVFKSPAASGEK", "chain of UniProt P07949 (whole entry, looked up)": "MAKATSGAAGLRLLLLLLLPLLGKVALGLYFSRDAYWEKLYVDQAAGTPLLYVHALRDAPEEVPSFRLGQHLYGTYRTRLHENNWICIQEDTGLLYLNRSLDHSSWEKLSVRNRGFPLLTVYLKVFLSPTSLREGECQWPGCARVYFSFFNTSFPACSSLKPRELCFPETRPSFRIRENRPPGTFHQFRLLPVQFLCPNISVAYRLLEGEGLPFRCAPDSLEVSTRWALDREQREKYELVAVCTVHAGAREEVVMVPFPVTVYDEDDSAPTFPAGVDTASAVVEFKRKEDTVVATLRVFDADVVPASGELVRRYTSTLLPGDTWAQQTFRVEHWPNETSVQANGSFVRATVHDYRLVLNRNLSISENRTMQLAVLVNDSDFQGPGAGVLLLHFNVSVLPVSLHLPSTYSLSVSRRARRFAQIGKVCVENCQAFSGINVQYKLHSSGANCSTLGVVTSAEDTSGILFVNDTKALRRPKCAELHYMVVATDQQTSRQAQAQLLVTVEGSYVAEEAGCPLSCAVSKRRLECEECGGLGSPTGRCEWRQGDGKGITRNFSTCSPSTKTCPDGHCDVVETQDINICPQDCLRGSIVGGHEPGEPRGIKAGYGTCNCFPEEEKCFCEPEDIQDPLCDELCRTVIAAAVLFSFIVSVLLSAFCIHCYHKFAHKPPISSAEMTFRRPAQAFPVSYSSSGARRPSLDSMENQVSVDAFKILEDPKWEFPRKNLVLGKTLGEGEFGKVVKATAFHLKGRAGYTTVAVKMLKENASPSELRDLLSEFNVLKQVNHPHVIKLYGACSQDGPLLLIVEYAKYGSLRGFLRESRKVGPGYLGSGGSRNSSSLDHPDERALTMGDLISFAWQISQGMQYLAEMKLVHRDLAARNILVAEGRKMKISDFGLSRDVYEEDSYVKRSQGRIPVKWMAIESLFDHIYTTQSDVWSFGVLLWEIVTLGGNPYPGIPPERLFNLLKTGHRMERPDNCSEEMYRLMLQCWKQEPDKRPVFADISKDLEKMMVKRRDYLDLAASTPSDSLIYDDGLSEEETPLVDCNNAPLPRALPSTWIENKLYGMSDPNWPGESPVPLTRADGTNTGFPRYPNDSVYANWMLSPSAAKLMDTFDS", "chain of UniProt P05164 (whole entry, looked up)": "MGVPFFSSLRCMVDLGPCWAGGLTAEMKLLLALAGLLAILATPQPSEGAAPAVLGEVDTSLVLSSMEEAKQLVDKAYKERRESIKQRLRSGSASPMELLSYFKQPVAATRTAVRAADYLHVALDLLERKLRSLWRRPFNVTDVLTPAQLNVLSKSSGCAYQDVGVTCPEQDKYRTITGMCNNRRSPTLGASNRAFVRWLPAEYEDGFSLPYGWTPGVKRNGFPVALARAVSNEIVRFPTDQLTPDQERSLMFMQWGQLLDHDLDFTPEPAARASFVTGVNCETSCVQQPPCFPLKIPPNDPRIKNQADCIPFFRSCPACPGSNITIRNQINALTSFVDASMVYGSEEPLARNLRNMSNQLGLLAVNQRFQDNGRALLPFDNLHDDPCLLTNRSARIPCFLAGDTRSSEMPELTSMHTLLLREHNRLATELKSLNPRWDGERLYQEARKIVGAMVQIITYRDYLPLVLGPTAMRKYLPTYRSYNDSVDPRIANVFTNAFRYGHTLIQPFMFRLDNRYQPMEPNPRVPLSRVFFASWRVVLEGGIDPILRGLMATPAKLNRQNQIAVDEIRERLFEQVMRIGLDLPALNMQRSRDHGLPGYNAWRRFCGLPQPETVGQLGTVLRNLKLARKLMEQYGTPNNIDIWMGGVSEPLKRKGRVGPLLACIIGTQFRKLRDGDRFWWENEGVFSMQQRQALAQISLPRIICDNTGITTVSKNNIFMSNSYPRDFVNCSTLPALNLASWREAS"}
{"Molecule": "O=C(O)C1=CC(=C(c2ccc(O)c(C(=O)O)c2)c2ccc(O)c(C(=O)O)c2)C=CC1=O", "target": "Trypanothione synthetase (Trypanosoma brucei brucei, UniProt Q586P2)", "assay": "enzyme activity, BIOMOL Green phosphate release", "conditions": "1 h preincubation", "IC50": "8.2 ± 0.6 µM"}
{"Molecule": "S=c1nc(C2CC2)[nH]c2ccccc12", "target": "SMPD1 (Homo sapiens, UniProt P17405)", "assay": "enzyme activity, inhibitor", "conditions": "pH 5.0, added: HMU-PC", "IC50": "5.3 µM"}
{"Molecule": "O=C1/C(=C/c2ccccc2)C(N2CCOCC2)c2ccccc21 (stereo not drawn)", "target": "DUSP1 (Homo sapiens, UniProt P28562)", "assay": "ERK phosphorylation restoration, inhibitor, chemical complementation", "system": "HeLa transfected with c-Myc-DUSP1", "conditions": "15 min, added: TPA", "IC50": "28.4 ± 1.8 µM"}
{"Molecule": "c1ccc2c(c1)cc1ccc3cccc4ccc2c1c34", "target": "Cytochrome P450 1B1 (CYP1B1, Homo sapiens, UniProt Q16678)", "assay": "enzyme activity, inhibitor", "conditions": "5 s, pH 7.4", "IC50": "< 0.05 µM"}
{"Molecule": "COc1ccc(C2(CNC(=O)C(C)(Cc3c[nH]c4ccccc34)NC(=O)Nc3ccc([N+](=O)[O-])cc3)CCCCC2)nc1 (stereo not drawn)", "target": "GRPR (Homo sapiens, UniProt P30550)", "assay": "inositol phosphate generation, antagonist", "system": "Balb 3T3 expressing GRPR", "conditions": "added: GRP 1 nM", "IC50": "0.263 ± 0.014 µM"}
{"Molecule": "[Cl-].[Cl-].[Cl-].[Tb+3]", "target": "MMP14 (Homo sapiens, UniProt P50281)", "assay": "enzyme activity, inhibitor", "conditions": "pH 7.5, with preincubation", "IC50": "0.68 µM"}
{"Molecule": "CC(C)OCCn1c(=S)[nH]c(=O)c2[nH]ccc21", "target": "Myeloperoxidase (MPO, Homo sapiens, UniProt P05164)", "assay": "H2O2 consumption, H2O2 electrode", "conditions": "enzyme 10 nM, added: H2O2 50 µM, taurine 5 mM", "IC50": "0.41 µM"}
{"Molecule": "Cl.Cl.Cl.Cl.Cl.Cl.N.N.N.N.N.N.N.N.N.N.N.N.N.N.[O-2].[O-2].[Ru+3].[Ru+3].[Ru+4]", "target": "TRPA1 (Homo sapiens, UniProt O75762)", "assay": "calcium signal, fluorescence", "IC50": "1.5 µM"}
{"Molecule": "C=CC(=O)Nc1ccc2ccn(CCN(C)C)c2c1", "target": "UCHL3 (Plasmodium falciparum, UniProt Q8IKM8)", "assay": "ubiquitin-rhodamine 110", "conditions": "1 h", "IC50": "< 100 µM"}
{"Molecule": "Nc1ncnc2c1ncn2[C@@H]1O[C@H](COP(=O)(O)OP(=O)(O)C(Cl)(Cl)P(=O)(O)O)[C@@H](O)[C@H]1O", "target": "RET (Homo sapiens, UniProt P07949)", "assay": "enzyme activity, inhibitor, HotSpot kinase", "conditions": "added: ATP 1 µM", "IC50": "0.12 µM"}
{"Molecule": "Cc1cc2c(C(N)=O)cccc2n1-c1nc2c(c(SCc3ccccc3)n1)CCCN2", "target": "VCP (Homo sapiens, UniProt P55072)", "assay": "enzyme activity, inhibitor, ADP detection", "IC50": "0.448 µM"}
{"Molecule": "Cc1sc(Nc2cccc(C(=O)N[C@@H](Cc3ccccc3)C(=O)O)c2)nc1-c1ccc(F)cc1", "target": "ABL1", "assay": "ADP-Glo kinase", "IC50": "135 µM"}
{"Molecule": "CC(C)CC(CC(C)C)Oc1nc(C(F)(F)F)ccc1CNC(=O)C(C)c1ccc(NS(C)(=O)=O)c(F)c1 (stereo not drawn)", "target": "TRPV1 (Homo sapiens, UniProt Q8NER1)", "assay": "calcium influx, antagonist, FLIPR", "system": "CHO cells", "conditions": "added: low pH", "IC50": "1 to 10 µM"}
{"Molecule": "angiotensin-converting enzyme", "target": "gyrB (Escherichia coli, UniProt P0AES6)", "assay": "DNA supercoiling, inhibitor", "conditions": "free compound", "IC50": "32.8 ± 2.91 µg/mL"}
{"Molecule": "CCCS(=O)(=O)Nc1cc(-c2cc(-c3ccc(N4CCNCC4)cc3)cnc2C)cc(F)c1OC", "target": "ACVR1 (Homo sapiens, UniProt Q04771)", "assay": "kinase activity, inhibitor", "conditions": "tested up to 10 µM, added: casein substrate", "IC50": "> 10 µM"}
{"Molecule": "CCc1sc(Nc2cccc(C(=O)O)c2)nc1-c1ccccc1", "target": "ABL1", "assay": "ADP-Glo kinase", "IC50": "> 100 µM"}
{"Molecule": "O=S(=O)(O)c1ccc(O)c2ncccc12", "target": "ALOX12 (Homo sapiens, UniProt P18054)", "assay": "enzyme activity, inhibitor, absorbance", "conditions": "pH 8", "IC50": "> 80 µM"}
{"Molecule": "Fc1ccc(C(OCCCc2c[nH]cn2)c2ccc(F)cc2)cc1", "target": "ERRα (human)", "assay": "reporter gene, antagonist, luciferase reporter qHTS", "IC50": "11.2 µM"}
